Published values pooled from the literature.
Protocols differ between the studies behind these lines.

SMILES = CCOc1ccccc1-n1c(CN2CCNCC2)nc2ccccc2c1=O; cell line = Panc 02.03; assay = cell growth or viability; setting = 72 h; IC50 = 0.0555 µM
SMILES = Cc1cc(Nc2nc(C[C@@]3(C(=O)O)CCN(Cc4cccc(Cl)c4F)[C@H](C)C3)cc(C)c2F)[nH]n1; cell line = HCC1395; assay = cell growth or viability, ATP luminescence; setting = 5 days; IC50 = 0.107 µM
SMILES = Cc1cc(Oc2nc(N3CC[C@@H](c4ccncc4)C3)ncc2F)[nH]n1; cell line = BXPC-3; assay = cell proliferation; system = pancreas cancer; IC50 = 58.9 µM
SMILES = O[C@]12C=C(c3nccc4c3[nH]c3ccccc34)[C@@H]3CCN(CCCC/C=C\CC1)C[C@@]31C[C@@H]3/C=C\CCCCN3[C@H]12; cell line = BT-549; assay = cell growth or viability, neutral red; setting = 48 h; IC50 = 1.1 µg/mL
SMILES = [CH3][Ti+2][O]C(=O)c1ccc([S][Au][PH](c2ccccc2)(c2ccccc2)[c-]2cccc2)cc1.[Fe+2].c1cc[cH-]c1.c1cc[cH-]c1.c1cc[cH-]c1; cell line = HEK-293T; assay = cell growth or viability, XTT; setting = 24 h; IC50 = 5.11 µM
SMILES = Cc1ccc2c(Cl)cc(Cl)c([O-])c2n1.Cc1ccc2c(Cl)cc(Cl)c([O-])c2n1.[Co+2].c1cnc2c(c1)c1nccnc1c1cccnc12; cell line = BEL-7404; assay = cell growth or viability, MTT; setting = 48 h; IC50 = 2.35 µM
SMILES = Fc1cccc(-n2cc(-c3ccccc3)nc2SCc2ccc(C(F)(F)F)cc2)c1; cell line = HBE; assay = ferroptotic cell death, inhibitor; setting = added: erastin 10 µM; IC50 = 6.8 µM
SMILES = Cc1ccccc1/C=C/C(=O)N[C@H]1COC(=O)[C@H](CC(=O)O)NC(=O)[C@H]([C@@H](O)C(=O)c2ccccc2N)NC(=O)[C@@H](Cc2ccccc2)NC(=O)[C@@H](NC(=O)[C@@H](Cc2ccccc2)NC(=O)CN)[C@@H](C)OC1=O; cell line = SK-HEP1; IC50 = > 20 µM
SMILES = CCC1(c2ccc(NC(=O)CCC(=O)OC3OC4OC5(C)CCC6C(C)CCC(C3C)C46OO5)cc2)CCC(=O)NC1=O (mixture of isomers); cell line = IOSE-144; assay = cell growth or viability, CCK-8; IC50 = 22 µM
SMILES = CCOc1ccc(Br)cc1/C=N/NC(=O)CCl; cell line = HT-29; assay = cell growth or viability; IC50 = 2.1 µM
SMILES = CSc1ccc2c(c1)c(CCN)c(C)n2Cc1ccc(Cl)cc1; cell line = BV-2; assay = cell count, high-content imaging; setting = geometric mean; IC50 = 3.55 µM
SMILES = CC[C@H](C)[C@@H]([C@@H](CC(=O)N1CCC[C@H]1[C@H](OC)[C@@H](C)C(=O)N[C@H](C)[C@@H](O)c1ccccc1)OC)N(C)C(=O)[C@@H](NC(=O)[C@H](C(C)C)N(C)C(=O)OCc1ccc(NC(=O)[C@H](CCCNC(N)=O)NC(=O)[C@@H](NC(=O)CCCc2cn(CC(=O)NCCCC[C@H]3NC(=O)[C@H](CCCCN)NC(=O)[C@H](CCCNC(N)=O)NC(=O)[C@H](Cc4ccc(O)cc4)NC(=O)[C@@H](NC(=O)[C@H](Cc4ccc5ccccc5c4)NC(=O)[C@H](CCCNC(=N)N)NC(=O)[C@@H](N)CCCNC(=N)N)CSSC[C@@H](C(=O)N[C@@H](CCCNC(=N)N)C(N)=O)NC(=O)[C@H](CCCNC(N)=O)NC(=O)[C@H](CCCNC(=N)N)NC(=O)[C@H](Cc4ccc(O)cc4)NC(=O)[C@@H]4CCCN4C3=O)nn2)C(C)C)cc1)C(C)C; cell line = L02; assay = cell growth or viability, CCK-8; IC50 = 3.44 µM
SMILES = O=C(C[Se]C(=O)c1cccs1)Nc1cccc(C(F)(F)F)c1; cell line = HaCaT; assay = cell growth or viability, MTS; setting = 48 h; IC50 = 29.3 µM
SMILES = CC1CCC2C(C)C(OC(=O)CCC(=O)OC3C(C)OC(n4cc(F)c(=O)[nH]c4=O)C3OC(=O)CCC(=O)OC3OC4OC5(C)CCC6C(C)CCC(C3C)C46OO5)OC3OC4(C)CCC1C32OO4 (centres unmarked); cell line = 7702 normal human cells; assay = cell growth, CCK-8; setting = 48 h; IC50 = 4.4 µM
SMILES = CC(C)C12OC1C1OC13C1(C)CCC4=C(COC4=O)C1CC1OC13C2OC(=O)CCCOC1OC(CO)C(O)C(O)C1O (centres unmarked); cell line = SW1990; assay = cell growth or viability, XTT; setting = 47 h; IC50 = 6.48 µM
SMILES = O=C1C=CC(=C(c2ccc(O)cc2)c2c(C#Cc3ccc(O)cc3)cccc2-c2ccc(O)cc2)C=C1; cell line = HUVEC; assay = cell growth or viability, MTT; setting = 48 h; IC50 = > 50 µM
SMILES = Cc1ccccc1/C=C/C(=O)N[C@@H](CO)C(=O)N[C@H](C(=O)N[C@H](Cc1ccccc1)C(=O)N[C@@H]1C(=O)N2[C@@H](CC(=O)O)C(=O)Nc3ccccc3[C@@]2(O)[C@@H]1O)[C@@H](C)O; cell line = SNU-638; IC50 = > 20 µM
SMILES = CN(C)C(=O)[C@@H](NC(=O)c1cc(-c2ccnn2C)ccc1-c1ccc(C(F)(F)F)cc1)c1cccc(C(F)(F)F)c1; cell line = NKL effector, Ba/F3-ULBP2 target; assay = NKG2D-mediated cell killing, inhibitor; IC50 = > 20 µM
SMILES = CC(C)C12OC1C1OC13C1(C)CCC4=C(COC4=O)C1CC1OC13C2OC(=O)CCC(=O)OC1OC(CO)C(O)C(O)C1O (centres unmarked); cell line = human Fibroblast; assay = cell growth or viability, XTT; setting = 47 h; IC50 = 5.64 µM
SMILES = CSc1ccc2c(c1)c(CCN)c(C)n2Cc1ccccc1Cl; cell line = BV-2; assay = nuclear intensity, high-content imaging; setting = geometric mean; IC50 = 4.98 µM
SMILES = CC(=O)O[C@@H]1C[C@@H](C)O[C@H]2O[C@@H]3C[C@@H]4CC[C@@H]5[C@H](CC[C@]6(C)[C@@H](C7=CC(=O)OC7)CC[C@]56O)[C@@]4(C=O)C[C@H]3O[C@]21O; cell line = L6; assay = cell growth or viability, resazurin; setting = 72 h; IC50 = < 0.01 µM
SMILES = CC1CCC2C(C)C(OC(=O)CCC(=O)N3CCN(CC(=O)Nc4ccc([N+](=O)[O-])c(C(F)(F)F)c4)CC3)OC3OC4(C)CCC1C32OO4 (centres unmarked); cell line = IOSE-144; assay = cell growth or viability, CCK-8; IC50 = 4.22 µM
SMILES = O=C(c1cc(Cc2n[nH]c(=O)c3ccccc23)ccc1F)N1CC(CNC2CC2)C1; cell line = IGROV-1; IC50 = 0.0115 µM

Some of these lines once more:
SMILES = Fc1cccc(-n2cc(-c3ccccc3)nc2SCc2ccc(C(F)(F)F)cc2)c1; cell line = HBE; assay = ferroptotic cell death, inhibitor; setting = added: erastin 10 µM; IC50 = 6.8 µM
SMILES = CC(=O)O[C@@H]1C[C@@H](C)O[C@H]2O[C@@H]3C[C@@H]4CC[C@@H]5[C@H](CC[C@]6(C)[C@@H](C7=CC(=O)OC7)CC[C@]56O)[C@@]4(C=O)C[C@H]3O[C@]21O; cell line = L6; assay = cell growth or viability, resazurin; setting = 72 h; IC50 = < 0.01 µM
SMILES = Cc1ccccc1/C=C/C(=O)N[C@H]1COC(=O)[C@H](CC(=O)O)NC(=O)[C@H]([C@@H](O)C(=O)c2ccccc2N)NC(=O)[C@@H](Cc2ccccc2)NC(=O)[C@@H](NC(=O)[C@@H](Cc2ccccc2)NC(=O)CN)[C@@H](C)OC1=O; cell line = SK-HEP1; IC50 = > 20 µM
